Experimental data collected from several papers.
Numbered parts are unrelated; each lists some results of a single study. ± gives the spread as reported.

Series 1
Target: HLA class I histocompatibility antigen, A alpha chain, allele A*68:01 (Homo sapiens, UniProt P04439)
Effect on: binding
Action: competitor
Endpoint: IC50
CC(C)C[C@H](NC(=O)[C@H](CCC(=O)O)NC(=O)[C@H](CCCNC(=N)N)NC(=O)[C@@H](NC(=O)[C@@H](NC(=O)CNC(=O)[C@H](CO)NC(=O)[C@H](CO)NC(=O)[C@@H](N)Cc1c[nH]cn1)C(C)C)[C@@H](C)O)C(=O)O: 1.65 µM
CC[C@H](C)[C@H](NC(=O)[C@H](CC(N)=O)NC(=O)[C@@H](NC(=O)[C@@H](NC(=O)[C@@H](NC(=O)[C@@H](N)CO)[C@@H](C)O)[C@@H](C)O)[C@@H](C)O)C(=O)N[C@H](C(=O)N[C@H](C(=O)N[C@@H](CCCNC(=N)N)C(=O)O)[C@@H](C)O)C(C)C: 0.018 µM
CC[C@H](C)[C@H](NC(=O)[C@@H](NC(=O)[C@@H](N)CCCNC(=N)N)[C@@H](C)O)C(=O)N[C@@H](CCCCN)C(=O)N[C@H](C(=O)N[C@@H](Cc1ccccc1)C(=O)N[C@H](C(=O)N[C@H](C(=O)N[C@H](C(=O)O)C(C)C)[C@@H](C)O)[C@@H](C)O)C(C)C: 13.5 µM
CC(C)[C@H](NC(=O)[C@@H](NC(=O)[C@@H](NC(=O)[C@@H](NC(=O)[C@@H](NC(=O)CNC(=O)[C@H](CO)NC(=O)[C@@H](N)Cc1ccc(O)cc1)C(C)C)C(C)C)[C@@H](C)O)[C@@H](C)O)C(=O)O: 4.11 µM

Further values, each from its own experiment
B1: efpA 1-530 F381A (Mycobacterium tuberculosis, UniProt P9WJY5); chain MTALNDTERAVRNWTAGRPHRPAPMRPPRSEETASERPSRYYPTWLPSRSFIAAVIAIGGMQLLATMDSTVAIVALPKIQNELSLSDAGRSWVITAYVLTFGGLMLLGGRLGDTIGRKRTFIVGVALFTISSVLCAVAWDEATLVIARLSQGVGSAIASPTGLALVATTFPKGPARNAATAVFAAMTAIGSVMGLVVGGALTEVSWRWAFLVNVPIGLVMIYLARTALRETNKERMKLDATGAILATLACTAAVFAFSIGPEKGWMSGITIGSGLVALAAAVAFVIVERTAENPVVPFHLFRDRNRLVTFSAILLAGGVMFSLTVCIGLYVQDILGYSALRAGVGFIPFVIAMGIGLGVSSQLVSRFSPRVLTIGGGYLLAGAMLYGSFFMHRGVPYFPNLVMPIVVGGIGIGMAVVPLTLSAIAGVGFDQIGPVSAIALMLQSLGGPLVLAVIQAVITSRTLYLGGTTGPVKFMNDVQLAALDHAYTYGLLWVAGAAIIVGGMALFIGYTPQQVAHAQEVKEAIDAGEL
B2: efpA 1-530 F389A (Mycobacterium tuberculosis, UniProt P9WJY5); chain MTALNDTERAVRNWTAGRPHRPAPMRPPRSEETASERPSRYYPTWLPSRSFIAAVIAIGGMQLLATMDSTVAIVALPKIQNELSLSDAGRSWVITAYVLTFGGLMLLGGRLGDTIGRKRTFIVGVALFTISSVLCAVAWDEATLVIARLSQGVGSAIASPTGLALVATTFPKGPARNAATAVFAAMTAIGSVMGLVVGGALTEVSWRWAFLVNVPIGLVMIYLARTALRETNKERMKLDATGAILATLACTAAVFAFSIGPEKGWMSGITIGSGLVALAAAVAFVIVERTAENPVVPFHLFRDRNRLVTFSAILLAGGVMFSLTVCIGLYVQDILGYSALRAGVGFIPFVIAMGIGLGVSSQLVSRFSPRVLTIGGGYLLFGAMLYGSAFMHRGVPYFPNLVMPIVVGGIGIGMAVVPLTLSAIAGVGFDQIGPVSAIALMLQSLGGPLVLAVIQAVITSRTLYLGGTTGPVKFMNDVQLAALDHAYTYGLLWVAGAAIIVGGMALFIGYTPQQVAHAQEVKEAIDAGEL
B1 (efpA 1-530 F381A) — binding (itself; SEC): binds
COc1ccc(-c2cc(=O)c3c(OC)cc(OC)cc3o2)cc1 — EC50 (SARS-CoV-2; virucidal activity; virus pre-treatment): 438 ± 59.3 µM
Nc1ncnc2c1ncn2[C@@H]1O[C@H](CO)[C@@H](O)[C@@H]1O — EC90 (SARS-CoV-2; Vero C1008, Omicron BA.5; 48 h): 12.6 ± 0.352 µM
B2 (efpA 1-530 F389A) — binding (itself; SEC): binds

Repeated from above (series 1):
CC[C@H](C)[C@H](NC(=O)[C@H](CC(N)=O)NC(=O)[C@@H](NC(=O)[C@@H](NC(=O)[C@@H](NC(=O)[C@@H](N)CO)[C@@H](C)O)[C@@H](C)O)[C@@H](C)O)C(=O)N[C@H](C(=O)N[C@H](C(=O)N[C@@H](CCCNC(=N)N)C(=O)O)[C@@H](C)O)C(C)C: 0.018 µM
